# Results collected from several papers.
# Lines come from different studies, so protocols differ. Numbers after ± are the reported error.
Molecule,test,test system,conditions,scale,measurement,result
C=CC(=C)CCC1(C)C(C)CC(O)C23C(=CC(OC(=O)/C=C/C=C/CCCCC)CC12)C(OC(C)=O)OC3OC(C)=O (stereo not drawn),haemolysis,,500 µM,,haemolysis,119%
C[C@]1(c2nc3c(C(N)=O)cccc3[nH]2)CCCN1,,"human patients, plasma","oral, 10 mg, day -2, cycle 1",,AUC(0-12h),370 ng·h/mL
Cc1nc(-c2ccc(OCC(C)C)c(C#N)c2)sc1C(=O)O,,"adults with gout, plasma","oral, 80 mg, together with: verinurad 10 mg",,AUC(0-24),7700 ng·h/mL
O=C(O)CN(CC(=O)O)Cc1cc2c(cc1O)Oc1cc(O)c(CN(CC(=O)O)CC(=O)O)cc1C21OC(=O)c2ccccc21,FCS,POPS/POPC giant vesicles,"20 nM, 30 min, pH 7.4, negative membrane potential, together with: Ru(C17)2^2+ 10 µM",,permeation,14%
C=C1[C@H](CO)[C@@H](O)C[C@@H]1n1cnc2c(=O)[nH]c(N)nc21,,"male Sprague-Dawley rat, plasma","oral, 1 mg/kg, together with: CdG 1 mg/kg",,t1/2,1.19 ± 0.43 h
C=CC(=O)Nc1cc(Nc2ncc(C(=O)OC(C)C)c(-c3cn(C)c4ccccc34)n2)c(OC)cc1N(C)CCN(C)C,,"human, fasted","oral, 80 mg single dose, geometric mean",,AUC(0-t),250 ng·h/mL
CC(=O)Nc1ccc(O)cc1,,"healthy volunteers, both sexes, plasma","oral, 650 mg, day 1",,AUC(0-12 h),31200 ng·h/mL
CCOc1ccc(Cc2cc([C@]34OC[C@](CO)(O3)[C@@H](O)[C@H](O)[C@H]4O)ccc2Cl)cc1,,"human, fasted","oral, 15 mg",reference: i.v. 14C 100 µg,oral bioavailability,~100%
CC(=O)Nc1ccc(O)cc1,glutathione conjugation,human liver S9,"100 µM, 2 h, pH 7.4, together with: glutathione 0.2 mM",,parent remaining,74.5%
CO/N=C1\C[C@]2(C[C@@H]3C[C@@H](C/C=C(\C)C[C@@H](C)/C=C/C=C4\CO[C@@H]5[C@H](O)C(C)=C[C@@H](C(=O)O3)[C@]45O)O2)O[C@H](/C(C)=C/C(C)C)[C@H]1C,"HPLC, non-compartmental","Corriedale lambs, parasitized, plasma","oral, 0.2 mg/kg",,elimination half-life,96 h
Cn1cc(-c2cc(N3CCCS3(=O)=O)ccc2Oc2ccc(F)cc2F)c2c(F)c[nH]c2c1=O,,"Sprague-Dawley rat, plasma","oral vs intravenous, 3 mg/kg oral, 1 mg/kg i.v.",,oral bioavailability,30.9%
CCCCC(=O)N(Cc1ccc(-c2ccccc2-c2nnn[nH]2)cc1)[C@H](C(=O)O)C(C)C,,"male human, plasma","oral, dose not given, day 8, adjusted geometric mean, together with: sildenafil",,AUCtau at steady state,21700 ng·h/mL
[2H]C([2H])([2H])Oc1cc2c(cc1OC([2H])([2H])[2H])C1CC(=O)C(CC(C)C)CN1CC2 (stereo not drawn),item: deuterated total (α+β)-HTBZ,"healthy human volunteers, plasma","oral, 18 mg single dose, standard meal",,dose-normalized AUC(0-t),21.2 ng·h/mL
Cc1ccc(C2Nc3ccccc3-n3c(-c4ccccc4)c4c(=O)n(C)c(=O)n(C)c4c32)o1 (stereo not drawn),LC-MS,"mouse, serum, kidney and urine","intravenous bolus, 300 µg, 30 to 60 min, detection limit below 100 nM",,compound level,not detected
CN(C)C(=O)c1cc2cnc(Nc3ccc(N4CCNCC4)cn3)nc2n1C1CCCC1,,"human, plasma","oral, 600 mg daily for 12 days, day of surgery",,unbound plasma concentration,150 nM
C[C@@H]1[C@H](c2c(F)ccc(F)c2F)C[C@H](NC(=O)c2cnc3c(c2)C[C@@]2(C3)C(=O)Nc3ncccc32)C(=O)N1CC(F)(F)F,,"healthy male human, urine and feces","oral, 50 mg, 14 days, total radioactivity",,dose excreted,~89%
C[C@]12CC[C@@H]3c4ccc(OS(=O)(=O)O)cc4CC[C@H]3[C@@H]1CCC2=O,,BME-UV cell monolayer on Transwell,"100 µM, 4 h, apical to basolateral",reference: support alone over monolayer,permeation rate constant ratio,≥ 80
CCCOc1ccc([C@H]2CNC(=O)N2c2ccc3[nH]cnc3c2)cc1,,"non-elderly adults, fasted, plasma","oral, 200 mg twice daily, day 11, oral solution, geometric mean",,AUC(0-12h),1830 ng·h/mL
COc1cc(/C=C/C(=O)CC(=O)/C=C/c2ccc(O)c(OC)c2)ccc1O,,"C57BL/6J mice, bone marrow","oral, 500 mg/kg, 30 min",reference: total,aglycone fraction,30 to 44%
CCN1C(=O)CNc2ncc(-c3ccc(-c4nc[nH]n4)nc3C)nc21,,"human, plasma","oral, 10 mg twice daily, multiple doses",,AUC(0-12h),383 ng·h/mL
O=C(O)[C@H](c1ccccc1Cl)N1CCc2sccc2C1,HPLC-MS/MS,feline citrate plasma,"48 h, -20 °C, storage stability",,deviation from nominal,16%
C=CC(N)CCC(=O)O (stereo not drawn),,"male Sprague-Dawley rat, plasma","oral, 10 mg/kg, formulation 8, together with: infant formula 1500 mg/kg",,Cmax,9240 ± 731 ng/mL
O=C1Nc2ccc(C(F)(F)F)cc2C(=O)CCc2ccccc21,nephelometry,aqueous buffer,"30 min, pH 6.5",,kinetic solubility,25 to 50 µg/mL
"FNA / CGLSGLGVA-NH2 ([18F]FNA-labelled, C-amide)",,"peptide, healthy mouse, blood","iv, dose not given",,blood cell-bound radioactivity,18.6 ± 0.54%
O=C(/C=C/c1ccc(O)c(O)c1)O[C@H](Cc1ccc(O)c(O)c1)C(=O)O,UPLC-MS/MS,"Wistar rat, microcirculation dysfunction model, plasma","oral, 100 mg/kg Salvia miltiorrhiza stem-leaf extract FS",,MRT(0-inf),5.01 ± 1.59 h
O=C1N=C(N2CCOCC2)CN1c1ccc(Cl)cc1,,"beagle dog, both sexes, plasma","oral, 30 mg/kg, day 0, tablets, single dose",,AUC(0-inf),101000 ng·h/mL
COC(=O)C[C@](O)(CCCC(C)(C)O)C(=O)O[C@@H]1C(OC)=C[C@]23CCCN2CCc2cc4c(cc2[C@H]13)OCO4,,"CD1 mouse, heart","subcutaneous, 1 mg/kg, 24 h, below quantification limit 1.00 ng/mL",,tissue concentration,not detected
CN(C)C(=O)c1cc2cnc(Nc3ccc(N4CCNCC4)cn3)nc2n1C1CCCC1,,patients Rb+ solid tumours,"oral, dose not given, all doses treatment-related",,QT prolongation all grades,11%
CCC(CC)COC(=O)[C@H](C)N[P@](=O)(OC[C@H]1O[C@@](C#N)(c2ccc3c(N)ncnn23)[C@H](O)[C@@H]1O)Oc1ccccc1,,20% w/w aqueous SBECD,"24 h, pH 1.9, 25 °C, SBECD source 5",,equilibrium solubility,8230 µg/mL
CC(=O)N[C@@H](CCCCN)C(=O)N[C@@H](CC(C)C)C(=O)N[C@@H](CC(=O)O)C(=O)N[C@@H](CC(C)C)C(=O)N[C@@H](CCCCN)C(=O)N[C@@H](CC(C)C)C(=O)N[C@@H](CC(=O)O)C(=O)N[C@@H](CC(C)C)C(=O)N[C@@H](CCCCN)C(=O)N[C@@H](CC(C)C)C(=O)N[C@@H](CC(=O)O)C(=O)N[C@@H](CC(C)C)C(N)=O,,"Sprague Dawley rat, knee OA model, synovial fluid",intra-articular,,joint residence time,≥ 6 weeks
CCCS(=O)(=O)Nc1ccc(F)c(C(=O)c2c[nH]c3ncc(-c4ccc(Cl)cc4)cc23)c1F,equilibrium dialysis,100% human plasma,"5 to 500 µM, before adding to plate",,unbound fraction,9.3e-06 ± 1.2e-06
Cc1nc2cccc(OCC(C)(C)C(=O)NC(C)C)c2c(N)c1C(=O)O,,"male Sprague-Dawley rat, plasma","oral food admix, 100 mg/kg/day, day 7, 90-day dietary study",,AUC(0-24 h),915 ng·h/mL
C[N+]1(CC(=O)OC2CCCCCCCCCCC2)CCCCC1.[I-],,phosphate buffer with 2% DMSO,"90 min, pH 7.4, theoretical maximum 200 µM",,aqueous solubility,177 µM
Cc1cc(-c2cc(OC(=O)c3ccccc3)ccc2Cl)cc2nnc(Nc3ccc(OCCN4CCCC4)cc3)nc12,,"Long Evans rat, retina","topical, 1%",,AUC(0-24 h),2.21 µM·h
CCCCCCCCCCCCCNCC(=O)N(CC(=O)N(CCCCN)CC(=O)N(CCN)CC(=O)N(CC(N)=O)c1ccccc1)c1ccccc1,preparative RP-HPLC C18,water to acetonitrile gradient,0.05% TFA in eluent,higher = more hydrophobic,acetonitrile at elution,67.7%
Cc1c2c(n(-c3ccc(F)cc3Cl)c1-c1ccc(OS(=O)(=O)CCC(F)(F)F)cc1)CCN(N1CCCCC1)C2=O,LC-MS/MS,"cynomolgus monkey 3, plasma","intravenous infusion, 0.4 mg/kg, 90 min, total concentration mid-point of PET",,plasma concentration,245 nM
CCc1oc2ccc(OC)cc2c1C(=O)c1cc(Br)c(O)c(Br)c1,,"Sprague-Dawley rat, liver microsomes","1.0 µM, pH 7.4, 37 °C, together with: NADPH 1.0 mM",,intrinsic clearance,9.5 ± 2.8 µL/min/mg
Cn1c(-c2ccc(C(N)=O)cc2F)nnc1C(C)(C)Oc1c(F)cc(Cl)cc1F,,"young Japanese subjects, plasma","oral, 20 mg single dose, day 1",,Cmax mean,213 ng/mL
Cc1cc(C(=O)NC(C)(C)COc2cccc3c2C(N)=NS(=O)(=O)N3)cc(C)n1,,"female Sprague-Dawley rat, plasma","oral, 30 mg/kg, single dose",,half-life,0.774 h
N[C@@H](CCC(=O)O)C(=O)O,,octanol/phosphate buffer,"pH 7.0, N-4-nitrobenzoyl amino acid derivatives",reference: glycine derivative,Π (relative logD),-1.85 ± 0.4
Cn1c(=O)cc(N2CCC[C@@H](N)C2)n(Cc2ccccc2C#N)c1=O,,"male ICR mouse, plasma","oral, 3 mg/kg, 24 h",,AUC,3460 ng·h/mL
FC(F)(F)c1cccc(CNC2CCN(CCc3ccccc3)CC2)c1,,0.1 M sodium acetate with 0.01% Triton X-100,pH 5.5,,maximum solubility,100 µM
N[C@]1(C(=O)O)[C@H]2[C@@H](C[C@@H]1F)[C@@H]2C(=O)O,,"healthy subjects, both sexes, plasma","oral, 10 mg TS-134 single dose, fed, mean",,AUC(0-24 h),382 ng·h/mL
Cc1cc(C)c2c(c1)[C@@H](N(Cc1cc(C(F)(F)F)cc(C(F)(F)F)c1)c1nnn(C)n1)CCCN2C[C@H]1CC[C@H](C(=O)O)CC1,,"human, plasma","oral, 600 mg once daily, steady state, geometric mean",,Vss/F,1740 L
CC(=O)Nc1ccc(O)cc1,,"Bactrian camel, plasma","intramuscular, 4 mg/kg single dose",,elimination half-life,5.59 ± 0.17 h
CCCC[C@H](NC(C)=O)C(=O)N[C@H]1CCC(=O)NC[C@@H](C(=O)N[C@@H](Cc2c[nH]c3ccccc23)C(N)=O)NC(=O)[C@H](CCCNC(=N)N)NC(=O)[C@@H](Cc2ccccc2)NC(=O)[C@H](Cc2c[nH]cn2)NC1=O,,"female rat, plasma","subcutaneous, 1 mg/kg/day, multiple doses, once daily",,Vd/F,1.08 L/kg
CC(O)c1cc(C(=O)N[C@@H](C)Cn2ccc(-c3ccc(C#N)c(Cl)c3)n2)[nH]n1 (stereo partly drawn),,"human, male, plasma","oral, 600 mg twice daily, day 7, with food, multiple doses",,AUC(0-12),28800 ng·h/mL
Cc1cc(Nc2cc3ncccc3c(N[C@@H]3C[C@H]4CC[C@@H](C3)N4CCC#N)n2)n[nH]1,,Crl:CD Sprague Dawley rats,up to 1000 mg/kg/day,,fertility parameters,no effect
CC(C)(C(=O)NCC(F)(F)C(F)(F)F)C(=O)N[C@@H]1C(=O)Nc2ccccc2-c2ccccc21,,"advanced breast cancer patients, plasma","oral, 20 mg, range among patients",,AUC(0-24 h),1.53 to 24.8 µM·h
COc1c(C)c2c(c(O)c1C/C=C(\C)CCC(=O)O)C(=O)OC2,equilibrium dialysis,"dogs, albumin H1 allele, plasma",12.5 µM,,unbound fraction,5.17 ± 0.83%
Cc1nc(Nc2ncc(C(=O)Nc3c(C)cccc3Cl)s2)cc(N2CCN(CCO)CC2)n1,,"Sprague-Dawley rat, female, plasma","intraperitoneal, 5 mg/kg, together with: rosiglitazone co-dosed",,MRT(0-inf),6.08 ± 2.03 h

# Some of these lines once more:
Molecule,test,test system,conditions,scale,measurement,result
C[N+]1(CC(=O)OC2CCCCCCCCCCC2)CCCCC1.[I-],,phosphate buffer with 2% DMSO,"90 min, pH 7.4, theoretical maximum 200 µM",,aqueous solubility,177 µM
CCCS(=O)(=O)Nc1ccc(F)c(C(=O)c2c[nH]c3ncc(-c4ccc(Cl)cc4)cc23)c1F,equilibrium dialysis,100% human plasma,"5 to 500 µM, before adding to plate",,unbound fraction,9.3e-06 ± 1.2e-06
N[C@]1(C(=O)O)[C@H]2[C@@H](C[C@@H]1F)[C@@H]2C(=O)O,,"healthy subjects, both sexes, plasma","oral, 10 mg TS-134 single dose, fed, mean",,AUC(0-24 h),382 ng·h/mL
CCCCCCCCCCCCCNCC(=O)N(CC(=O)N(CCCCN)CC(=O)N(CCN)CC(=O)N(CC(N)=O)c1ccccc1)c1ccccc1,preparative RP-HPLC C18,water to acetonitrile gradient,0.05% TFA in eluent,higher = more hydrophobic,acetonitrile at elution,67.7%
Cn1c(=O)cc(N2CCC[C@@H](N)C2)n(Cc2ccccc2C#N)c1=O,,"male ICR mouse, plasma","oral, 3 mg/kg, 24 h",,AUC,3460 ng·h/mL
